Published values collected from several papers.
A part holds a random share of what one study measured. Substitutions count along the parent as printed.

Series 1
Target: Sal-like protein 4, full length isoform B (SALL4, Homo sapiens, UniProt Q9UJQ4-2, residues 1-616)
Technique: universal PBM
Form: double-stranded DNA, one strand shown
Matrix: in vitro
Concentration: not given
Setting: 8-mer, flanks averaged, mean of replicates
Reading: higher = stronger binding
Target sequence (chain): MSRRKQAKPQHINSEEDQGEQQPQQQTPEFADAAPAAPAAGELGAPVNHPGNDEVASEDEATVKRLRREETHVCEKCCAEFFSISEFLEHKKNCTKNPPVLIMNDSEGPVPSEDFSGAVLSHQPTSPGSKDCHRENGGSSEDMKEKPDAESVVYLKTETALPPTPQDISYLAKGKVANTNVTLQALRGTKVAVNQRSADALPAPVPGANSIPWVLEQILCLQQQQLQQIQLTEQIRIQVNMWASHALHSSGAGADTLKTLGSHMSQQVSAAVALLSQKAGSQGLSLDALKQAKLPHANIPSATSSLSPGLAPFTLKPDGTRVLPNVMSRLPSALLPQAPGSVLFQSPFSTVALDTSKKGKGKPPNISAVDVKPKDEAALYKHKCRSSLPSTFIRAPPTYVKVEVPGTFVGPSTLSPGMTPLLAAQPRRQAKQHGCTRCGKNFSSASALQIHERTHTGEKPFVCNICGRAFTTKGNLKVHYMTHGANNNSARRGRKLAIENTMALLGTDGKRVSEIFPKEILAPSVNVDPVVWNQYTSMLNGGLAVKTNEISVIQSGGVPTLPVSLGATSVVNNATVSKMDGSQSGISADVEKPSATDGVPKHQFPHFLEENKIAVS
Strand | E-score
GTTCAGGA | -0.121
GCGTTCCC | -0.103
TGGGCACA | -0.055
AACTGTCG | 0.00305
CACTTCGC | -0.0688
AGTCGAGC | -0.282
GGCCAGCC | -0.367
TTGTTAAA | 0.269
GTATCTGA | 0.0716
CCGACTCG | -0.179
CCCCAGAC | -0.194
AAAGGTCC | -0.223
AGATGCCT | 0.0329
AGTGTGAT | -0.00376
CGTGCTTA | 0.0375
AACTAAAA | 0.247
CGGCAAAA | -0.053
ACTTTAGC | -0.0289
CCGTGAGC | -0.316

Series 2
Target: Interferon regulatory factor 5, full length, phosphomimetic (IRF5, Homo sapiens, UniProt Q13568-2, residues 1-514, S451D/S453D/S456D/S462D)
Technique: protein-binding microarray
Form: double-stranded DNA, one strand shown
Matrix: in vitro
Concentration: 940 nM top
Setting: 60-bp whole probe
With: salmon DNA 0.4 mg/ml
Baseline: random background probes
Reading: higher = stronger binding
Constant ends, left off below: GCCTAGCAC … GTCTTGATTCGCTTGACGCTGCTG
Strand | fitted relative affinity [z-score]
TTAGGTGTCGACTTTCGGTTAGTGCTA | 3.07
GACCGACTGGGTTTCGGGACGTGCTAG | 3.93
TCATCTATTGCTTTCTCACTGTGCTAG | 1.42
TACGATATCAGACTGGAGACGTGCTAG | -0.512
TTAGATTTCAGTCGCGATTAGTGCTAG | 0.634
CTAGAACTGAGTCTCGATTAGTGCTAG | 2.78
GACGGTTTCCTCCTGCTGACGTGCTAG | 1.29
GACGATTTCAGCATCGAGACGTGCTAG | -0.287
GACGGTTTCAGACTGGGGACGTGCTAG | 1.93
TTAGAGATCGGGTATCGATTAGTGCTA | 2.78
TCTCCTTTCCAAATACCCTCGTGCTAG | 2.18
GACGGTACCGGTCTCGGGACGTGCTAG | 1.3
TCATCTATGTCTGTTTTACTGTGCTAG | 0.909
TTAGTTATCGGGTATCGATTAGTGCTA | 3.39
AATTAAATGATATATATCCATGTGCTA | -0.16
TCATTTTCCTACATCAGACTGTGCTAG | 1.29
TTATGTTCCCTTTTCCTTTAGTGCTAG | 1.91
TTGGGTTTCCTACTGCTTTAGTGCTAG | 0.668

Series 3
Target: UBE2O UBC core domain (UniProt Q9C0C9)
Technique: yeast two-hybrid
Matrix: yeast
Setting: mostly zero background
Baseline: not given
Reading: higher = stronger interaction
B1: RNF4 RING domain (UniProt P78317); chain TGLRPSGTVSCPICMDGYSEIVQNGRLIVSTECGHVFCSQCLRDSLKNANTCPTCRKKINHKRYHP
B2: TRIM3 RING domain (UniProt O75382); chain VQPMDKQFLVCSICLDRYQCPKVLPCLHTFCERCLQNYIPAQSLTLSCPVCRQTSILPEQGV
B3: RNF5 RING domain (UniProt Q99942); chain ERGGAGATFECNICLETAREAVVSVCGHLYCWPCLHQWLETRPERQECPVCKAGISREKVVP
B4: RNF43 RING domain (UniProt Q68DV7); chain SGSSCSSAPVCAICLEEFSEGQELRVISCLHEFHRNCVDPWLHQHRTCPLCMFNITEGDSFS
B5: TRIM55 RING domain (UniProt Q9BYV6); chain TMDNLEKQLICPICLEMFTKPVVILPCQHNLCRKCASDIFQASNPYLPTRGGTTMASGGRFRCPSCRHEVVLDRHG
B6: TRIM35 RING domain (UniProt Q9UPQ4); chain PSRSFKEELLCAVCYDPFRDAVTLRCGHNFCRGCVSRCWEVQVSPTCPVCKDRASPADLRT
B7: TRIM15 RING domain (UniProt Q9C019); chain SLKVVHELPACTLCAGPLEDAVTIPCGHTFCRLCLPALSQMGAQSSGKILLCPLCQEEEQAETPMA
B8: RNF112 RING domain (UniProt Q9ULX5); chain QPMAPRELPTCSICLERLRDPISLDCGHDFCIRCFSTHRLPGCEPPCCPECRKICKQKRGLR
B9: TRIM38 RING domain (UniProt O00635); chain STKKMMEEATCSICLSLMTNPVSINCGHSYCHLCITDFFKNPSQKQLRQETFCCPQCRAPFHMDSLRP
B10: MSL2 RING domain (UniProt Q9HCI7); chain LLPYFRQSLSCCVCGHLLQDPIAPTNSTCQHYVCKTCKGKKMMMKPSCSWCKDYEQFEENKQ
Target sequence (chain): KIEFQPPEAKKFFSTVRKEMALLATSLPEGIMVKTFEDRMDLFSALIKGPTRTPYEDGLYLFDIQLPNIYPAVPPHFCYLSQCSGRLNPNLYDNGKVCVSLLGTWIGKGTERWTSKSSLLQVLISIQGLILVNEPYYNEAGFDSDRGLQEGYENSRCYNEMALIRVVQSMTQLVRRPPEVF
Sequence | lacZ reporter activity
B1 (RNF4 RING domain) | 0
FLKKLEQSFMCVCCQELVYQPVTTECFHNVCKDCLQRSFKAQVFSCPACRHDLGQNYIMI (UHRF2 RING domain (UniProt Q96PU4)) | 0
B2 (TRIM3 RING domain) | 0
B3 (RNF5 RING domain) | 0
MANWVFCNRCFQPPHRTSCFSLTNCGHVYCDACLGKGKKNECLICKAPCRTVLLSK (RNF212 RING domain (UniProt Q495C1)) | 0
B4 (RNF43 RING domain) | 0
KRQCSDVDDICSICQAEFQKPILLICQHIFCEECMTLWFNREKTCPLCRTVISDHINKW (RNFT1 RING domain (UniProt Q5M7Z0)) | 0
B5 (TRIM55 RING domain) | 0
B6 (TRIM35 RING domain) | 0
B7 (TRIM15 RING domain) | 0
B8 (RNF112 RING domain) | 0
SYEDKSNDFVCPICFDMIEEAYMTKCGHSFCYKCIHQSLEDNNRCPKCNYVVDNIDHLY (COP1 RING domain (UniProt Q8NHY2)) | 0
B9 (TRIM38 RING domain) | 0
B10 (MSL2 RING domain) | 0

Series 4
Target: Histone acetyltransferase KAT6A, winged helix 2, GST fusion (KAT6A, Homo sapiens, UniProt Q92794, residues 85-181)
Technique: protein binding microarray
Form: double-stranded DNA, one strand shown
Matrix: in vitro
Concentration: not given
Setting: 8-mer, flanks averaged, mean of 2 arrays, mostly near background
Baseline: not given
Reading: higher = stronger binding
Construct (chain): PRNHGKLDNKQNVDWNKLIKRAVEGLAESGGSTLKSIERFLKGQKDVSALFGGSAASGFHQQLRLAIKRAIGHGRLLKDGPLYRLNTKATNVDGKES
Strand | E-score
GGAAGACA | 0.169
AACTTCTA | -0.043
CCCTTAGC | -0.0143
CAAGATAC | -0.0853
AATAATTG | -0.0386
CGCCCATC | 0.0471
CATGACTC | -0.147
GGGCAGGA | 0.152
ATTTATTC | 0.0898
AATTAATG | 0.0748
CTACACGA | 0.0708
CCCTCGCA | 0.0107
AGAGTAAG | 0.0344
ACGTATTC | -0.128
AACCAGCG | 0.0954
CATCATAC | 0.143
AACAAAAA | 0.133
AAAGGCGT | -0.0784

Series 5
Target: ABI1, truncated, D143A, DHFR fusion (Arabidopsis thaliana, UniProt P49597)
Technique: DHFR PCA, dose-response
Matrix: yeast
Setting: Hill fit, mean, not affinity
With: (+)-ABA, dose series
Reading: lower = more sensitive
Starting sequence: PYL1, truncated, DHFR fusion (Arabidopsis thaliana, UniProt Q8VZS8); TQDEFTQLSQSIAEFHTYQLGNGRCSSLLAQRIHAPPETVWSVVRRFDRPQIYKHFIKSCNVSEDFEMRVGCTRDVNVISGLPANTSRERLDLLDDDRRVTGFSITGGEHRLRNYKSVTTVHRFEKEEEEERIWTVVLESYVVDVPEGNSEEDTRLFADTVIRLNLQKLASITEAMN
Variant | ABA EC50 [µM]
P146C | 67.8
R69A | 1.94
P146Q | 290
E152K | 5.67
E14C | 16.7
D97H | 3.66
G148M | 17.1
T119V | 24.1
C72M | 2.36
F15L | 13.6
F15T | 79.3
L8C | 5.4

Series 6
Target: Runt-related transcription factor 1, full length (RUNX1, Homo sapiens, UniProt Q01196-8, residues 1-480)
Technique: protein-binding microarray
Form: hairpin DNA
Matrix: in vitro
Concentration: not given
Setting: whole hairpin DNA, median over replicate spots
Baseline: not given
Reading: higher = stronger binding
Strand | median fluorescence [a.u.]
GAGGCCTCGTGTGGTTGGCCTCCTGGCCAACCACACGAGGCCTCACACTC (5mC at 8 36) | 2080
GAGGCCTCGTGTGGTTGGCCTCCTGGCCAACCACACGAGGCCTCACACTC (5mC at 8) | 2130
GAGGCCCCGCCGCAACAGCCTCCTGGCTGTTGCGGCGGGGCCTCACACTC (5mC at 36) | 2700
CTCAGTTCTGTGGGTTGGACTCCTGTCCAACCCACAGAACTGAGACACTC | 2420
GAGGCCTGACGCGGTTGGCCTCCTGGCCAACCGCGTCAGGCCTCACACTC | 2210
CTCAGTTCCGTGGGCTGGACTCCTGTCCAGCCCACGGAACTGAGACACTC (5mC at 9 35) | 2130
CTCAGCTCTGTGGGCTGGACTCCTGTCCAGCCCACAGAGCTGAGACACTC | 1910
GAGGCCTGTTGTGGTTCGCCTCCTGGCGAACCACAACAGGCCTCACACTC | 2550
GAGGCCTGTTGCGGTTAGCCTCCTGGCTAACCGCAACAGGCCTCACACTC | 12100
CTCAGGTCTGTGGGCTGGACTCCTGTCCAGCCCACAGACCTGAGACACTC (5mC at 39) | 1970
CTCAGTTCGGTGGGCTGGACTCCTGTCCAGCCCACCGAACTGAGACACTC (5mC at 36) | 1870
GAGGCCCAACAGCAACAGCCTCCTGGCTGTTGCTGTTGGGCCTCACACTC | 1720
GAGGCCTGTCGCGGTTGGCCTCCTGGCCAACCGCGACAGGCCTCACACTC (5mC at 34) | 2760
GAGGCCTGTTGTGGCGGGCCTCCTGGCCCGCCACAACAGGCCTCACACTC (5mC at 15 29) | 1990
GAGGCCGGTTGTGGTTGGCCTCCTGGCCAACCACAACCGGCCTCACACTC (5mC at 38) | 3620
GAGGCGTGTCGCGGTTGGCCTCCTGGCCAACCGCGACACGCCTCACACTC (5mC at 39) | 3070
GAGGCCCAACCGCGACAGCCTCCTGGCTGTCGCGGTTGGGCCTCACACTC (5mC at 13 31) | 5600
CTCAGTTCTGTGGGCTTGACTCCTGTCAAGCCCACAGAACTGAGACACTC | 1920
GAGGCCTGTTGTGTTTGGCCTCCTGGCCAAACACAACAGGCCTCACACTC | 1620
GAGGCCTGTCGCGGTTGGCCTCCTGGCCAACCGCGACAGGCCTCACACTC (5mC at 10 34) | 5200
GAGGCCTGTTGTGGCGGGCCTCCTGGCCCGCCACAACAGGCCTCACACTC | 2060
CTCAGTTGTGTGGGCTGGACTCCTGTCCAGCCCACACAACTGAGACACTC (5mC at 37) | 2040
CTCAGTTCTGTGGGGTGGACTCCTGTCCACCCCACAGAACTGAGACACTC | 1950
GAGGCCTGTCGCGGTAGGCCTCCTGGCCTACCGCGACAGGCCTCACACTC | 1960

For quick reference, copied from above (series 1):
Strand | E-score
GCGTTCCC | -0.103
TGGGCACA | -0.055
AACTGTCG | 0.00305
CACTTCGC | -0.0688
AGTCGAGC | -0.282
GGCCAGCC | -0.367
TTGTTAAA | 0.269
GTATCTGA | 0.0716
CCGACTCG | -0.179
CCCCAGAC | -0.194
AAAGGTCC | -0.223
AGATGCCT | 0.0329
